Experimental data collected from several papers.
Each line is one published result; not all experiments were run side by side. Several values in a cell are separate wells, animals, samples, runs or records. Values after ≈ are worked out from the molar mass of the structure shown.

The IC50 of `COc1ccc(Nc2n[nH]c3nc(-c4ccccc4)nc(N)c23)cc1OC` is reported as 2.95 µM (rhinovirus B48; viral cytopathic effect; HeLa).
`CC(=O)Nc1ccc(C2CCCCC2)cc1` has a hepatic clearance of 2.82 L/h/kg (hepatocyte stability; cryopreserved rat hepatocytes; 1 µM).
For `c1ccc(CN2CCOCCOCCN(CCCCCCCCN3CCOCCOCCN(CCCCCCCCN4CCOCCOCCN(Cc5ccccc5)CCOCCOCC4)CCOCCOCC3)CCOCCOCC2)cc1`, the FIC index was 0.6 (Klebsiella pneumoniae; ATCC BAA-2146; half MIC, with: ciprofloxacin).
Under antimicrobial activity, `CC[C@H](C)[C@H](NC(=O)[C@@H]1CCCN1C(=O)[C@H](CCSC)NC(=O)[C@H](CC(C)C)NC(=O)[C@H](Cc1ccccc1)NC(=O)[C@H](Cc1ccc(O)cc1)NC(=O)[C@@H]1CCC(=O)NCC(=O)NCC(=O)NCC(=O)NCC(=O)N2CCC[C@H]2C(=O)N[C@@H]([C@@H](C)O)C(=O)N2CCC[C@H]2C(=O)N1)C(=O)N[C@@H](CC(=O)O)C(=O)N1CCC[C@H]1C(=O)N[C@@H](C)C(=O)N[C@@H](Cc1c[nH]c2ccccc12)C(=O)N[C@@H](CC(C)C)C(=O)N[C@@H](CCC(N)=O)C(=O)N[C@@H](C)C(=O)N[C@@H](CC(N)=O)C(=O)N[C@@H](CC(C)C)C(=O)N1CCC[C@H]1C(=O)N[C@@H](CC(N)=O)C(=O)N[C@H](C(=O)NCC(=O)N[C@@H](CCCCN)C(=O)N[C@@H](Cc1ccc(O)cc1)C(=O)N[C@@H](CC(N)=O)C(=O)O)[C@@H](C)O` is recorded as “inactive” (Burkholderia cepacia; spot-on-lawn; ATCC 25416; concentration not given, 32 °C).
`Cc1cc(Cl)cc(S(C)=NC#N)c1NC(=O)c1cc(Br)nn1-c1ncccc1Cl` (centres unmarked): “corrected larval mortality” 90.4% (Plutella xylostella; Raphanus sativus field; 50 ppm, 168 h, 10% wettable powder).
`Cc1ccc(-c2nc(N)c3c(Nc4ccc(Cl)cc4)n[nH]c3n2)cc1` has an IC50 of 0.99 µM (rhinovirus B48; viral cytopathic effect; HeLa).
`NCCOCCO.O=C(O)C(Cl)Cl` gave an inhibition of 0% (Solanum nigrum; herbicidal activity; 15 mg/mL, 21 days, post-emergence greenhouse).
For `c1ccc(CN2CCOCCOCCN(CCCCCCCCCCCCN3CCOCCOCCN(CCCCCCCCCCCCN4CCOCCOCCN(Cc5ccccc5)CCOCCOCC4)CCOCCOCC3)CCOCCOCC2)cc1`, the fold enhancement was 2 fold (Klebsiella pneumoniae; tetracycline activity; ATCC BAA-2146; 2.5 µM, with: tetracycline; reference: tetracycline alone).
The MIC of `C=CCO/N=C(\C(=O)N[C@@H]1C(=O)N(OS(=O)(=O)O)C1(C)C)c1csc(N)n1` is reported as 1 mg/L (≈ 2.38 µM) (Enterobacter aerogenes; agar dilution; ATCC 13048, susceptible).
For `c1ccc(CN2CCOCCOCCN(CCCCCCCCCCN3CCOCCOCCN(CCCCCCCCCCN4CCOCCOCCN(Cc5ccccc5)CCOCCOCC4)CCOCCOCC3)CCOCCOCC2)cc1`, the FIC index was 0.58 (Klebsiella pneumoniae; checkerboard; ATCC BAA-2146; quarter MIC, with: tetracycline).
The hepatic clearance of `O=C(CC(F)(F)F)Nc1ccc([C@H]2[C@@H](F)[C@@H](F)C[C@@H](F)[C@H]2F)cc1` is reported as 1.02 L/h/kg (hepatocyte stability; cryopreserved human hepatocytes; 1 µM).
`COC1C=COC2(C)Oc3c(C)c(O)c4c(c3C2=O)C2=NC3(CCN(CC(C)C)CC3)NC2=C(NC(=O)C(C)=CC=CC(C)C(O)C(C)C(O)C(C)C(OC(=O)Nc2cccnn2)C1C)C4=O` (centres unmarked) gave an IC90 of 0.399 µM (Mycobacteroides abscessus; intracellular growth, visual read; THP-1 derived macrophages, ATCC 19977).
`C=C1C(=O)OC2C1CCC(C)(O)C13C=CC(C)(C21)C1(C3)C(=O)OC2C3C(C)C(=O)CC3C(=C)CC(OC(C)=O)C21` (centres unmarked): ROS content “decreased” (Danio rerio; DCFH-DA; concentration not given, HFD-fed larvae NAFLD model).
The fold enhancement of `c1ccc(CN2CCOCCOCCN(CCCCCCCCCCCCCCN3CCOCCOCCN(CCCCCCCCCCCCCCN4CCOCCOCCN(Cc5ccccc5)CCOCCOCC4)CCOCCOCC3)CCOCCOCC2)cc1` is reported as 3 fold (Klebsiella pneumoniae; ciprofloxacin activity; ATCC BAA-2146; half MIC, with: ciprofloxacin; reference: ciprofloxacin alone).
`CC(C)(C)NCC(SS(=O)(=O)O)c1ccccc1` (centres unmarked) — result for “female worm burden reduction”: 28% (Schistosoma mansoni; mice; 600 mg/kg single dose, 1056 h, dosed day 7, perfused 44; reference: vehicle).
`C=C[C@]1(C)C[C@@H](OC(=O)CSc2ccc(NC(=O)c3ccco3)cc2)[C@]2(C)[C@H](C)CC[C@]3(CCC(=O)[C@H]32)[C@@H](C)[C@@H]1O`: “lung mycoplasma count” 5.22 log10 CFU/mL and 4.84 log10 CFU/mL and 5.56 log10 CFU/mL and 5.08 log10 CFU/mL and 5.2 log10 CFU/mL and 4.41 log10 CFU/mL and 4.67 log10 CFU/mL (Mycoplasma gallisepticum; infected chickens, lung; intramuscular, 5 mg/kg daily x3, 72 h).
The IC50 of `Nc1nc(-c2ccccc2)nc2[nH]nc(Nc3cccc(F)c3F)c12` is reported as 0.16 µM (rhinovirus B48; viral cytopathic effect; HeLa).
`CC1C=CC=CC(C)C2C=CC3CC(C)(O)C(Cl)C(C)C3C2C(=O)C(Cl)(Cl)C(=O)C(C)C(=O)O1` (centres unmarked) gave an MIC of 0.05 mg/L (≈ 0.094 µM) (Staphylococcus aureus; MRSA clinical isolate; resistant: OXA,CLI,ERY,GEN,TET).
The EC50 of `Cc1cc(C(=O)Nc2nc3cccc(C)c3n2[C@H]2CCCCN(C(=O)/C=C/CN(C)C)C2)ccn1` is reported as 0.085 µM (Trypanosoma brucei brucei; growth inhibition, CellTiter-Glo; Lister 427 bloodstream form; 48 h).
`COC1C=COC2(C)Oc3c(C)c(O)c4c(c3C2=O)C2=NC3(CCN(CC(C)C)CC3)NC2=C(NC(=O)C(C)=CC=CC(C)C(O)C(C)C(O)C(C)C(OC(=O)Nc2cnccn2)C1C)C4=O` (centres unmarked) gave an IC90 of 0.016 µM (Mycobacteroides abscessus; bacterial growth; subsp. massiliense clinical isolate; slow grower).
The IC50 of `Nc1ncnc2[nH]nc(Nc3ccc(F)c(F)c3)c12` is reported as 22.3 µM (rhinovirus B48; viral cytopathic effect; HeLa).
`CCCC(=O)C#Cc1ccc(F)c(F)c1`: “activity vs control” 95% (Pseudomonas aeruginosa; microbial growth, absorbance; 100 µM, 24 h).
With `O=c1c(-c2nc3ccccc3s2)cc2c(n1NS(=O)(=O)c1ccc(Cl)cc1)CCCCCC2` the plaque reduction was 70% (herpes simplex virus 1; viral replication, plaque; Vero; non-toxic dose, mean of three titres).
For `CC(C)(O/N=C(\C(=O)N[C@@H]1C(=O)N(OS(=O)(=O)O)C1(C)C)c1nsc(N)n1)C(=O)O`, the MIC was greater than 64 mg/L (Enterobacter aerogenes; agar dilution; ATCC 13048, susceptible).
`Nc1nc(-c2ccccc2)nc2[nH]nc(Nc3cccc(C(F)(F)F)c3)c12` has an IC50 of 3.39 µM (rhinovirus B48; viral cytopathic effect; HeLa).
With `CC(O)CNCC(C)O.O=C(O)C(Cl)Cl` (centres unmarked) the inhibition was 0% (Solanum nigrum; herbicidal activity; 15 mg/mL, 21 days, pre-emergence greenhouse).
`CN(C)S(=O)(=O)c1ccc(S(=O)(=O)N2CCC(n3c(=O)[nH]c4ccccc43)CC2)cc1` — result for “lung bacterial burden”: 5.65 log CFU and 4.55 log CFU and 4.1 log CFU and 6.14 log CFU (Klebsiella pneumoniae; ATCC 700603, mouse lung infection model, lung; 6 mg/kg, 24 h).
`Cc1cccc2c1N(C(=O)n1ccnn1)CC2` has a germination rate of 61.2% (Arabidopsis thaliana; kai2 mutant; 30 µM, 72 h).
For `OB(O)c1ccc(C(F)(F)F)s1`, the growth was 60.2% and 86% and 80.6% and 64.6% and 81.1% (Listeria monocytogenes; 100 µM, 10 h; reference: untreated).
The MIC of `CC1(C)[C@H](NC(=O)/C(=N\OC2(C(=O)O)CCCC2)c2csc(N)n2)C(=O)N1OS(=O)(=O)O` is reported as 0.5 mg/L (≈ 1.02 µM) (Enterobacter aerogenes; agar dilution; ATCC 13048, susceptible).
The IC50 of `Cc1ccc(-c2nc(N)c3c(Nc4ccccc4)n[nH]c3n2)cc1` is reported as 1.6 µM (rhinovirus B48; viral cytopathic effect; HeLa).
With `C[C@@H]1C(=O)O[C@@H](C)/C=C/C=C\[C@@H](C)[C@@H]2C=C[C@@H]3C[C@@]4(C)O[C@H]4[C@@H](C)[C@H]3[C@@H]2C(=O)C(Cl)(Cl)C1=O` the MIC was 0.05 mg/L (≈ 0.101 µM) (Staphylococcus aureus; MRSA clinical isolate; Resistant, OXA, GEN, ERY, CLI, SXT).
For `Nc1nc(-c2ccccc2)nc2[nH]nc(Nc3ccc(Cl)cc3)c12`, the IC50 was 0.03 µM (rhinovirus B48; viral cytopathic effect; HeLa).
`CC(=O)OC[C@H]1O[C@@H](Sc2sc(C(=O)c3ccc(Br)cc3)c(N)c2-c2nc3ccccc3s2)[C@H](OC(C)=O)[C@@H](OC(C)=O)[C@H]1OC(C)=O` has a viral reduction of 40% (herpes simplex virus 1; plaque reduction; non-toxic dose NG, mean over three titres).
With `CC[C@H](C)CCCCC(=O)N[C@@H](CCN)C(=O)N[C@H](C(=O)N[C@@H](CCN)C(=O)N[C@H]1CCNC(=O)[C@H]([C@@H](C)O)NC(=O)[C@H](CCN)NC(=O)[C@H](CCN)NC(=O)[C@H](CC(C)C)NC(=O)[C@@H](CC(C)C)NC(=O)[C@H](CCN)NC1=O)[C@@H](C)O` the bacterial count was 0 log CFU (Pseudomonas aeruginosa; PAO1; 60 min).
`C=C(NC(=O)c1csc(-c2nc3c(cc2O)-c2nc(cs2)C(=O)NC(C(C)O)C(=O)NC(=C(C)OC)c2nc(cs2)C(=O)NC2c4nc(cs4)C(=O)NC(COC(=O)c4c5c6c(cccc6n4O)COC(=O)C(OC4CC(C)(O)C(N(C)C)C(C)O4)C2OC5)c2nc-3cs2)n1)C(N)=O` (centres unmarked) has an MIC50 of 0.0312 mg/L (≈ 0.0217 µM) (Staphylococcus epidermidis; methicillin-resistant, 10 isolates; serum 25%).
`COc1cc(Nc2n[nH]c3nc(-c4ccccc4)nc(N)c23)cc(OC)c1OC` gave an IC50 of 1.11 µM (rhinovirus B48; viral cytopathic effect; HeLa).
The viral reduction of `Cc1ccc(C(=O)c2sc(S)c(-c3nc4ccccc4s3)c2N)cc1` is reported as 10% (herpes simplex virus 1; plaque reduction; non-toxic dose NG, mean over three titres).
